Measured values pooled from the literature.
Each line is one published result; not all experiments were run side by side. ± marks the error that the study gave.

C=CCNC1=C2C[C@@H](C)C[C@H](OC)[C@H](O)[C@@H](C)/C=C(\C)[C@H](OC(N)=O)[C@@H](OC)/C=C\C=C(/C)C(=O)NC(=CC1=O)C2=O — Cmax (patients, plasma; intravenous, 150 mg/m2, cycle 1 day 4, added: bortezomib 0.7 mg/m2): 2590 ± 562 ng/mL
O=c1[nH]c(Cc2ccccn2)nc2c1cnn2C1CCOCC1 — Cmax (healthy men, extensive metabolizers, plasma; oral, 350 mg single dose, tablet, geometric mean): 5.54 µM
CCCCCOc1ccc(-c2cc(-c3ccc(C(=O)N[C@H]4C[C@@H](O)[C@@H](O)NC(=O)[C@@H]5[C@@H](O)[C@@H](C)CN5C(=O)[C@H]([C@H](O)CC(N)=O)NC(=O)[C@H]([C@H](O)[C@@H](O)c5ccc(O)c(OS(=O)(=O)O)c5)NC(=O)[C@@H]5C[C@@H](O)CN5C(=O)[C@H]([C@@H](C)O)NC4=O)cc3)no2)cc1 — Cmax (preterm neonates below 1000 g, plasma; intravenous, 15 mg/kg/day, repeated dosing, mean): 38600 ng/mL
Cc1cc(C(C#N)c2ccc(Cl)cc2)c(Cl)cc1NC(=O)c1cc(I)cc(I)c1O (stereo not drawn) — Cmax (parasitized Corriedale lambs, plasma; oral, 10 mg/kg, added: moxidectin 0.2 mg/kg oral): 78100 ± 21300 ng/mL
CN(C)CCC[C@@]1(c2ccc(F)cc2)OCc2cc(C#N)ccc21 — Cmax (healthy volunteers, plasma; oral, dose not given, given alone): 9.19 ng/mL
O=C1c2c(c3c4ccc(O)cc4n([C@@H]4O[C@H](CO)[C@@H](O)[C@H](O)[C@H]4O)c3c3[nH]c4cc(O)ccc4c23)C(=O)N1NC(CO)CO — Cmax (cancer patients, plasma; intravenous infusion, 6 mg/m2, 1 h infusion, cycle 1, added: 5-FU/leucovorin): 79 ± 17.6 ng/mL
Cc1ncc2n1-c1ccc(Cl)cc1C(c1ccccc1F)=NC2 — Cmax (healthy volunteers, plasma; oral, 8 mg, CYP3A probe, geometric mean, added: Echinacea purpurea for 28 days): 38 ng/mL
CC[C@H](C)[C@H](NC(=O)[C@@H](N)CCCNC(=N)N)C(=O)N[C@H](C(=O)N1CCC[C@H]1C(=O)N[C@@H](C)C(N)=O)C(C)C — Cmax (healthy volunteers, both sexes, plasma; intravenous infusion, 3.0 mg/kg daily, day 7, multiple ascending dose): 13400 ± 4430 ng/mL
CC[C@H](C)C(=O)O[C@H]1C[C@H](O)C=C2C=C[C@H](C)[C@H](CC[C@@H](O)C[C@@H](O)CC(=O)O)[C@H]21 — Cmax (healthy volunteers, plasma; oral, dose not given, given alone): 18.5 ng/mL
CNC(=O)c1ccc(-c2cnn3ccc(C(=O)N(C)c4ccc(Cl)c(C(=O)OC)c4)cc23)cc1 — Cmax (neonatal calf, infected, with diarrhoea, plasma; oral, 10 mg/kg, day 1): 0.021 µM
C[C@H]1O[C@@H](O[C@H]2[C@@H](O)C[C@H](O[C@H]3[C@@H](O)C[C@H](O[C@H]4CC[C@@]5(C)[C@H](CC[C@@H]6[C@@H]5C[C@@H](O)[C@]5(C)[C@@H](C7=CC(=O)OC7)CC[C@]65O)C4)O[C@@H]3C)O[C@@H]2C)C[C@H](O)[C@@H]1O — Cmax (healthy volunteers, plasma; oral, dose not given, added: 2D regimen): 2.16 ng/mL
CCCCCOc1ccc(-c2cc(-c3ccc(C(=O)N[C@H]4C[C@@H](O)[C@@H](O)NC(=O)[C@@H]5[C@@H](O)[C@@H](C)CN5C(=O)[C@H]([C@H](O)CC(N)=O)NC(=O)[C@H]([C@H](O)[C@@H](O)c5ccc(O)c(OS(=O)(=O)O)c5)NC(=O)[C@@H]5C[C@@H](O)CN5C(=O)[C@H]([C@@H](C)O)NC4=O)cc3)no2)cc1 — Cmax (young infants under 1000 g, plasma; intravenous infusion, 10 mg/kg/day, day 4, median, 1 h infusion, repeat dosing): 24900 ng/mL
Cc1cc(=O)[nH]c2c1NC(=O)c1cccnc1N2C1CC1 — Cmax (olive baboon (Papio anubis), non-pregnant, serum; oral, 400 mg nevirapine, tablet): 2.27 ± 0.23 ng/mL
CN1CC(=O)N2[C@H](c3ccc4c(c3)OCO4)c3[nH]c4ccccc4c3C[C@@H]2C1=O — Cmax (healthy adults, plasma; oral, 40 mg, fasted, free combination, added: macitentan 10 mg): 610 ng/mL
CCCCCOc1ccc(-c2ccc(-c3ccc(C(=O)N[C@H]4C[C@@H](O)[C@@H](O)NC(=O)[C@@H]5[C@@H](O)[C@@H](C)CN5C(=O)[C@H]([C@@H](C)O)NC(=O)[C@H]([C@H](O)[C@@H](O)c5ccc(O)cc5)NC(=O)[C@@H]5C[C@@H](O)CN5C(=O)[C@H]([C@@H](C)O)NC4=O)cc3)cc2)cc1 — Cmax (human, plasma; intravenous, 3 mg/kg loading): 7700 ng/mL
Cc1ncc2n1-c1ccc(Cl)cc1C(c1ccccc1F)=NC2 — Cmax (healthy men, plasma; oral, 7.5 mg, day 19, arithmetic mean, added: 7 days post amenamevir): 39.7 ng/mL
CC[C@H](C)[C@H](NC(=O)[C@H](CCC(=O)O)NC(=O)[C@H](CCC(=O)O)NC(=O)[C@H](Cc1ccccc1)NC(=O)[C@H](CC(=O)O)NC(=O)CNC(=O)[C@H](CC(N)=O)NC(=O)CNC(=O)CNC(=O)CNC(=O)CNC(=O)[C@@H]1CCCN1C(=O)[C@H](CCCNC(=N)N)NC(=O)[C@@H]1CCCN1C(=O)[C@H](N)Cc1ccccc1)C(=O)N1CCC[C@H]1C(=O)N[C@@H](CCC(=O)O)C(=O)N[C@@H](CCC(=O)O)C(=O)N[C@@H](Cc1ccc(O)cc1)C(=O)N[C@@H](CC(C)C)C(=O)O — Cmax (PCI patients, plasma; intravenous, 0.75 mg/kg bolus, 5 to 10 min): 3.2 ± 0.7 µM
CNCCC[C@@]1(c2ccc(F)cc2)OCc2cc(C#N)ccc21 — Cmax (healthy volunteers, plasma; dose not given, given alone): 1.51 ng/mL
Cc1ncc2n1-c1ccc(Cl)cc1C(c1ccccc1F)=NC2 — Cmax (healthy volunteers, plasma; oral, 7.5 mg single dose, day 1, geometric mean, alone): 36.8 ng/mL
CC(C)c1nc(N(C)S(C)(=O)=O)nc(-c2ccc(F)cc2)c1/C=C/[C@@H](O)C[C@@H](O)CC(=O)O — Cmax (healthy volunteers, plasma; oral, dose not given, given alone): 2.33 ng/mL
C[C@@H](Oc1cc(-c2cnn(C3CCNCC3)c2)cnc1N)c1c(Cl)ccc(F)c1Cl — Cmax (patients; 215 mg/m^2, day 14, with dasatinib, median): 262 ng/mL
